Published values pooled from the literature.
A part holds a random share of what one study measured.

Series 1 — method: protein-binding microarray; form: double-stranded DNA, one strand shown; sample: in vitro; tested at: not given; reading: higher = stronger binding
Target: Protein max, full length (MAX, Homo sapiens, UniProt P61244-2, residues 1-151)
Notes: k-mer, scored over probes, only values ≥0.25
| Strand | E-score |
| --- | --- |
| CATGTCGG | 0.267 |
| CATGAGGC | 0.396 |
| CGGTCACG | 0.343 |
| CATGGGAA | 0.257 |
| CATGTGGC | 0.483 |

Series 2 — method: protein binding microarray; form: double-stranded DNA, one strand shown; sample: in vitro; tested at: not given; relative to: not given; reading: higher = stronger binding
Target: Histone acetyltransferase KAT6A, winged helix 2, GST fusion (KAT6A, Homo sapiens, UniProt Q92794, residues 85-181)
Notes: 8-mer, flanks averaged, mean of 2 arrays, mostly near background
Residues (chain): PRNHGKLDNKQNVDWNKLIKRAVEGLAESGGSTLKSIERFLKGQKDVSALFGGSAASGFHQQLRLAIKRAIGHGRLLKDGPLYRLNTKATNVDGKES
| Strand | E-score |
| --- | --- |
| AGCTATAC | -0.0315 |
| CGCAACAC | 0.119 |
| GGACATGA | -0.0988 |
| ACGTAGAG | -0.281 |
| AAGCAGAT | 0.151 |

Series 3 — method: protein-binding microarray; form: double-stranded DNA, one strand shown; sample: in vitro; tested at: 2540 nM top; notes: 60-bp whole probe; together with: salmon DNA 0.4 mg/ml; relative to: random background probes; reading: higher = stronger binding
Target: Interferon regulatory factor 3, full length, phosphomimetic (IRF3, Homo sapiens, UniProt Q14653, residues 1-427, S386D/S396D/S398D/S402D/T404D/S405D)
Sequence of UniProt Q14653 (whole entry, unmodified, looked up): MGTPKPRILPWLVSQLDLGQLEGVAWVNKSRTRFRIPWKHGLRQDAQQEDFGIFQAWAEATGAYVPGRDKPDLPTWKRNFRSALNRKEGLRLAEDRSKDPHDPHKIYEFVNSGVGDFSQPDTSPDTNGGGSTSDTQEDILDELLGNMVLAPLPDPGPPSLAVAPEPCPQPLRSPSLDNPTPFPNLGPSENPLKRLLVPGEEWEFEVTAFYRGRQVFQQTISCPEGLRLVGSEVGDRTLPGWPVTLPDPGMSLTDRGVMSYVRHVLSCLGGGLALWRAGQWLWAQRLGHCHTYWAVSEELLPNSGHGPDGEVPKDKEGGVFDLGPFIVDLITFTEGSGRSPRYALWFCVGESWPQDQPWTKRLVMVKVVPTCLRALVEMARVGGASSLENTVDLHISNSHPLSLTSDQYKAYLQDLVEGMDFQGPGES
| Strand | fitted relative affinity |
| --- | --- |
| GCCTAGCACGACGATTTCGGGACTGCAGACGTGCTAGTCTTGATTCGCTTGACGCTGCTG | 1.94 z-score |
| GCCTAGCACGACGATTCCATTTTCGAGACGTGCTAGGTCTTGATTCGCTTGACGCTGCTG | 3.06 z-score |
| GCCTAGCACGTAGAACTGGGGTATCGATTAGTGCTAGTCTTGATTCGCTTGACGCTGCTG | -0.448 z-score |
| GCCTAGCACTTAGATTTCAGTTCCGTTTAGTGCTAGGTCTTGATTCGCTTGACGCTGCTG | 4.11 z-score |

Other studies, line by line
| Substance | target | test | test system | setting | scale | quantity | result |
| --- | --- | --- | --- | --- | --- | --- | --- |
| PhoQ, residues 284 288 289 292 302 303 SCCLKL | PhoP, residues 12 14 15 18 19 AQALL (Escherichia coli, UniProt P23836) | Sort-seq, measured: YFP reporter | E. coli | PhoQ-PhoP variant library, together with: 10 µM Mg2+ | relative to: high Mg2+ state, higher = stronger signaling | fold induction | 7.49 |

For quick reference, copied from above (series 2):
| Strand | E-score |
| --- | --- |
| GGACATGA | -0.0988 |
| ACGTAGAG | -0.281 |
